Results pooled from the literature.
Every numbered part comes from another study and shows a few of its results, in no order.
UniProt P08913, sequence (whole entry, looked up): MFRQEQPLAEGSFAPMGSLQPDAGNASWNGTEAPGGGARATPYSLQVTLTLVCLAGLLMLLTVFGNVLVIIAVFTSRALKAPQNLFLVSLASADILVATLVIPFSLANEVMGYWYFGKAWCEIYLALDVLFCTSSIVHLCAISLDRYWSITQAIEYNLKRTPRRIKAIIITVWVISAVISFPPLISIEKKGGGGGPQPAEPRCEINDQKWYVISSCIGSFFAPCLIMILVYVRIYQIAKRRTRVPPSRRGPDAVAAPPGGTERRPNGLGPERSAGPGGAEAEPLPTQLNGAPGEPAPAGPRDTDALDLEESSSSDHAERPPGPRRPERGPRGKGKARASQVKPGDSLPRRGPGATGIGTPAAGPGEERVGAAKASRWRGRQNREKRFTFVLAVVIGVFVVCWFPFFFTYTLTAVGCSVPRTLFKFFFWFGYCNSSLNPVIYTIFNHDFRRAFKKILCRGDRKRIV

Sample 1 — method: universal PBM; molecule type: double-stranded DNA, one strand shown; medium: in vitro; concentration: not given; reading: higher = stronger binding
Target: Sal-like protein 4, full length isoform B (SALL4, Homo sapiens, UniProt Q9UJQ4-2, residues 1-616)
Setting: 8-mer, flanks averaged, mean of replicates
Residues (chain): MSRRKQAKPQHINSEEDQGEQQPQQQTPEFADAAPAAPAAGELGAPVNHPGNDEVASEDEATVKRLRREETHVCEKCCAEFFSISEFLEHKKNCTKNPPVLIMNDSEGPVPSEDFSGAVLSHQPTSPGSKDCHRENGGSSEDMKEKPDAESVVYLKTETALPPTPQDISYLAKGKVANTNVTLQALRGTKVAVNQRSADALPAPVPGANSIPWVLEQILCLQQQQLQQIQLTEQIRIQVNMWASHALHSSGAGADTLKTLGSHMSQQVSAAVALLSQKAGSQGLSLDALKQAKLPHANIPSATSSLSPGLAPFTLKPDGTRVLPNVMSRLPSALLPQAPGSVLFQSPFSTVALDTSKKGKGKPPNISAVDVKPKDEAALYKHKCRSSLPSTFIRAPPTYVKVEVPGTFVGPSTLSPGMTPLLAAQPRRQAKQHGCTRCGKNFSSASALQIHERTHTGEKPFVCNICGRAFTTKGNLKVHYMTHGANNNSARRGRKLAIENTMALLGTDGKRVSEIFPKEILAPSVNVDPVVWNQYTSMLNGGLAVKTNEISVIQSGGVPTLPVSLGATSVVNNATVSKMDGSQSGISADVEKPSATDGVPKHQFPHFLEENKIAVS
Sequence	E-score
AAGACCTA	0.0237
CCCCGGGC	-0.425
GACAAATC	0.0663
ATCACCAT	0.145
CTCGAGAA	-0.124
GTTGCAAC	-0.0711
AATCAACG	0.126
CCTCTCAA	-0.0781

Sample 2 — method: protein-binding microarray; molecule type: hairpin DNA; medium: in vitro; concentration: not given; baseline: not given; reading: higher = stronger binding
Target: Hepatocyte nuclear factor 3-beta, forkhead domain (FOXA2, Homo sapiens, UniProt Q9Y261, residues 142-269)
Setting: whole hairpin DNA, median over replicate spots
Construct (chain): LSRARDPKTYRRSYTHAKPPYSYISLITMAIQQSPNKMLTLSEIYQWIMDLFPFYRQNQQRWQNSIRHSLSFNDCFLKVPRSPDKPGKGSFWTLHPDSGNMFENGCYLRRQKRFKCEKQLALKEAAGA
Sequence	median fluorescence [a.u.]
GAGGCCAAGTAACCAACGCCTCCTGGCGTTGGTTACTTGGCCTCACACTC	3330
GAGGCCATGCAAACAAGGCCTCCTGGCCTTGTTTGCATGGCCTCACACTC (5mC at 28)	3510
GAGGCCATGTACGCAACGCCTCCTGGCGTTGCGTACATGGCCTCACACTC (5mC at 12 32)	3570
GAGGCCATGTAAATAACGCCTCCTGGCGTTATTTACATGGCCTCACACTC	3760
GAGGCCATGCAACGAACGCCTCCTGGCGTTCGTTGCATGGCCTCACACTC	3420
GAGGCCTTGTAACCAACGCCTCCTGGCGTTGGTTACAAGGCCTCACACTC	2760
GAGGCCCTGTAAACAACGCCTCCTGGCGTTGTTTACAGGGCCTCACACTC	3680
GAGGCCATGCGACCAACGCCTCCTGGCGTTGGTCGCATGGCCTCACACTC	3490

Further values, each from its own experiment
Structure (SMILES)	tested on	test	test system	setting	quantity	result
COC(=O)c1ccc(COc2ccc(-c3nnn[nH]3)cc2)cc1			mouse, microsomes or S9	2 µM, 0.5 h	remaining compound	0.631%
CN(c1ccnc(CNc2nc(Nc3ccc4c(c3)CC(=O)N4)ncc2C(F)(F)F)n1)S(C)(=O)=O	ADRA2A (Homo sapiens, UniProt P08913)	cell-free assay		10 µM	inhibition	0.4%

For quick reference, copied from above (sample 2):
Sequence	median fluorescence [a.u.]
GAGGCCTTGTAACCAACGCCTCCTGGCGTTGGTTACAAGGCCTCACACTC	2760
GAGGCCCTGTAAACAACGCCTCCTGGCGTTGTTTACAGGGCCTCACACTC	3680
GAGGCCATGCGACCAACGCCTCCTGGCGTTGGTCGCATGGCCTCACACTC	3490
